Results from different studies.
Each line is one published result; not all experiments were run side by side. Several values in a cell are separate wells, animals, samples, runs or records. ± marks the error that the study gave.
NF-kappa-B inhibitor alpha: NF-kappa-B inhibitor alpha (Homo sapiens, UniProt P25963)
Chain of UniProt P25963 (whole entry, looked up): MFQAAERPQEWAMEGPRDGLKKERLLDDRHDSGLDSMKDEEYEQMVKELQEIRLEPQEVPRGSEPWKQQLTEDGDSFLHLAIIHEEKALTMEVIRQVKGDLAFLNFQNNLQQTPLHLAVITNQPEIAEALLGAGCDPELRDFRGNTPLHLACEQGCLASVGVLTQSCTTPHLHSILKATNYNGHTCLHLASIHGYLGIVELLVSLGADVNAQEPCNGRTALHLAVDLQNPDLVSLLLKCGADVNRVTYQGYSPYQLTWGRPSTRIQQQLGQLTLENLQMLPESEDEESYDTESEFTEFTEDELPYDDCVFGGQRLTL
Aryl hydrocarbon receptor: Aryl hydrocarbon receptor (Danio rerio, UniProt Q9YGV3)
ABL1 Q252H: Tyrosine-protein kinase ABL1 (ABL1, Homo sapiens, UniProt P00519, Q252H)
Chain of UniProt P00519 (whole entry, unmodified, looked up): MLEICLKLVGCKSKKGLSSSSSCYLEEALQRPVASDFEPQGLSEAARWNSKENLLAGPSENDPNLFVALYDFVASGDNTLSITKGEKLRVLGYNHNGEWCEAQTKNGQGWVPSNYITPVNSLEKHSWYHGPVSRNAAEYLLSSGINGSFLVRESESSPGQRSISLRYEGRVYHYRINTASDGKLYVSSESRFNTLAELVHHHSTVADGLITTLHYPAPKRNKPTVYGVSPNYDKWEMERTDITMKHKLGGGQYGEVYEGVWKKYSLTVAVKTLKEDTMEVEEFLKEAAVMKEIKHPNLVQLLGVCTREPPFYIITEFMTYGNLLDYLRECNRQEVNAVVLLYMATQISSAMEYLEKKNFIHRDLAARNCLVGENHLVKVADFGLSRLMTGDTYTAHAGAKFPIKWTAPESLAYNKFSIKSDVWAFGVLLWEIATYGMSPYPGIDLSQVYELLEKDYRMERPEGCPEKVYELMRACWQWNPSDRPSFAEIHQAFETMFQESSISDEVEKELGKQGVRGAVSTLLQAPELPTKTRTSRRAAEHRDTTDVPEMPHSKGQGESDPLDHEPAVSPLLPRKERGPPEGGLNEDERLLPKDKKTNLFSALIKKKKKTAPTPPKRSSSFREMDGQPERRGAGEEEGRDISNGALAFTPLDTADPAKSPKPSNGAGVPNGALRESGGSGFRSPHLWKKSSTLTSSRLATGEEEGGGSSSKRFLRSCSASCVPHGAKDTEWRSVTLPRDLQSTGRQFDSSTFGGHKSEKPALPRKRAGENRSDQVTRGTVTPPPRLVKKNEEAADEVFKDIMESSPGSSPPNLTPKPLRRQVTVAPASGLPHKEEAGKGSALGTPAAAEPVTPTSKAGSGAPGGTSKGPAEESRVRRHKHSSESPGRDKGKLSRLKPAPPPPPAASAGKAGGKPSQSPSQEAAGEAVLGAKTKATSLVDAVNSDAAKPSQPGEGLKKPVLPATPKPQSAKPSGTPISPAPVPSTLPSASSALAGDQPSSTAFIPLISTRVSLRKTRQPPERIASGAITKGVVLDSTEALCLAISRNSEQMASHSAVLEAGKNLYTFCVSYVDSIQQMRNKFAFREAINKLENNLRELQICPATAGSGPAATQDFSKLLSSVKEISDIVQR
SET: Protein SET (SET, Homo sapiens, UniProt Q01105)
Chain of UniProt Q01105 (whole entry, unmodified, looked up): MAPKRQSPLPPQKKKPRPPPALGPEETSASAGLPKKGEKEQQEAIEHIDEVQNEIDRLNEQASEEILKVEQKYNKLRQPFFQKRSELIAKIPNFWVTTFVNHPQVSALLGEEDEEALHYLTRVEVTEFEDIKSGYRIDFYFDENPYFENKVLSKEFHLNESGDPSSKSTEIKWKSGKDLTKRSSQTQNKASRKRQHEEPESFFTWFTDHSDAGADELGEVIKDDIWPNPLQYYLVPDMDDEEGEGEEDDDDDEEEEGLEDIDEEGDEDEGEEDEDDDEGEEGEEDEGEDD
TOP2A: DNA topoisomerase 2-alpha (TOP2A, Homo sapiens, UniProt P11388)
Chain of UniProt P11388 (whole entry, looked up): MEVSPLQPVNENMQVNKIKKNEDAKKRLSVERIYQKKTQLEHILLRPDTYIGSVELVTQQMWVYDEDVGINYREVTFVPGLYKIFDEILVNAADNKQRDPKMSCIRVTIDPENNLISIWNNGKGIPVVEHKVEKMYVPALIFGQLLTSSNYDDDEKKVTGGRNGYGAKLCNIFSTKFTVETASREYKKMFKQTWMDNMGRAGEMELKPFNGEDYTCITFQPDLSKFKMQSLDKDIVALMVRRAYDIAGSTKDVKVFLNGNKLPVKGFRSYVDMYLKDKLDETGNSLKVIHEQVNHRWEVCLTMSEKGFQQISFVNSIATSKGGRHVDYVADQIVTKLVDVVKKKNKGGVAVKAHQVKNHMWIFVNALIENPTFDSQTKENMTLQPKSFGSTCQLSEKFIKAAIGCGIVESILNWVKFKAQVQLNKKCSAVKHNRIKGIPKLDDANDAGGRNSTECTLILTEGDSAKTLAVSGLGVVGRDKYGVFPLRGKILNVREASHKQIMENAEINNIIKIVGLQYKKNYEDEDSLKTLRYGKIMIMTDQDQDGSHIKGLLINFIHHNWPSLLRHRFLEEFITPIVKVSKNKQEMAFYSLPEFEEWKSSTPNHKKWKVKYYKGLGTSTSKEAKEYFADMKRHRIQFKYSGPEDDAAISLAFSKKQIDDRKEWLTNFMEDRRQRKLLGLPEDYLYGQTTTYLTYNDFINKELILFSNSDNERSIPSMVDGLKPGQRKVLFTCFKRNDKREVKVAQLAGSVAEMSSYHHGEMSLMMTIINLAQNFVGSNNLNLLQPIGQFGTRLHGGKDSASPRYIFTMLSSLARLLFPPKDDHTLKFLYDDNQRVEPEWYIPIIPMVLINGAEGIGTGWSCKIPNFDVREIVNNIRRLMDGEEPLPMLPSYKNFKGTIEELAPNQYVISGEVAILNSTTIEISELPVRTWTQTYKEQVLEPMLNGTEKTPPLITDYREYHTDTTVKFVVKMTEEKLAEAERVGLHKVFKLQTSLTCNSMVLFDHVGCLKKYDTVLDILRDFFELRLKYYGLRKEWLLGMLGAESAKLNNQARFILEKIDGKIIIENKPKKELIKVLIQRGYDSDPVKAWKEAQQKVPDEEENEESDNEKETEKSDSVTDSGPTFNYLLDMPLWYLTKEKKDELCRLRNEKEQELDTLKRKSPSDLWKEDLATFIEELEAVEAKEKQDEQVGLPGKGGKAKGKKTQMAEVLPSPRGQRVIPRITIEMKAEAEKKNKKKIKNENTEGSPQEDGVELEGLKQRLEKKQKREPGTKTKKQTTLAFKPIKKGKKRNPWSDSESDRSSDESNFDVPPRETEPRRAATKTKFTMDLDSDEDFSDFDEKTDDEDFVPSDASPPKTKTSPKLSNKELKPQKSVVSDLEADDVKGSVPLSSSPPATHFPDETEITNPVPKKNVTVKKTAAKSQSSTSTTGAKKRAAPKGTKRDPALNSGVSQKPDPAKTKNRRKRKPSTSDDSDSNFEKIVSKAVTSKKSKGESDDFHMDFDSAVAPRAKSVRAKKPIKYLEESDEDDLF
T1: ssDNA, aptamer; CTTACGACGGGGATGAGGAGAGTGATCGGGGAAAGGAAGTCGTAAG
T2: DNA aptamer A10G; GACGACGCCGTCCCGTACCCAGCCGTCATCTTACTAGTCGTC
Chain of UniProt P51575 (whole entry, unmodified, looked up): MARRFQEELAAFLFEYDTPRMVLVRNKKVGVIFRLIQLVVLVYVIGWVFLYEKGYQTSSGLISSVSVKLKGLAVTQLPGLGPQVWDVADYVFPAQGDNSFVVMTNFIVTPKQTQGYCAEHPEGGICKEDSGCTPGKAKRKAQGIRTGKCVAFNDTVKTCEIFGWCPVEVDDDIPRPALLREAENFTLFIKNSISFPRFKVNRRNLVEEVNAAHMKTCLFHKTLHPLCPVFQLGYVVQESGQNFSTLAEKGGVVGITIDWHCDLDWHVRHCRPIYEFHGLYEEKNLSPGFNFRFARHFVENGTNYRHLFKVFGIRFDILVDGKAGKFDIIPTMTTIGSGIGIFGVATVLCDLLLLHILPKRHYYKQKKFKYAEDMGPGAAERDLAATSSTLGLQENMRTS
Chain of UniProt Q16774 (whole entry, unmodified, looked up): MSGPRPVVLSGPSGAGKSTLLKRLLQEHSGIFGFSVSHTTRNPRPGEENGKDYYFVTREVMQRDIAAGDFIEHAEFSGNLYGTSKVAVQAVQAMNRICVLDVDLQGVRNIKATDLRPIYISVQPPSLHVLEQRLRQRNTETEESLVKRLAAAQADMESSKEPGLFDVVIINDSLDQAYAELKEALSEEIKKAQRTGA
Chain of UniProt O76090 (whole entry, unmodified, looked up): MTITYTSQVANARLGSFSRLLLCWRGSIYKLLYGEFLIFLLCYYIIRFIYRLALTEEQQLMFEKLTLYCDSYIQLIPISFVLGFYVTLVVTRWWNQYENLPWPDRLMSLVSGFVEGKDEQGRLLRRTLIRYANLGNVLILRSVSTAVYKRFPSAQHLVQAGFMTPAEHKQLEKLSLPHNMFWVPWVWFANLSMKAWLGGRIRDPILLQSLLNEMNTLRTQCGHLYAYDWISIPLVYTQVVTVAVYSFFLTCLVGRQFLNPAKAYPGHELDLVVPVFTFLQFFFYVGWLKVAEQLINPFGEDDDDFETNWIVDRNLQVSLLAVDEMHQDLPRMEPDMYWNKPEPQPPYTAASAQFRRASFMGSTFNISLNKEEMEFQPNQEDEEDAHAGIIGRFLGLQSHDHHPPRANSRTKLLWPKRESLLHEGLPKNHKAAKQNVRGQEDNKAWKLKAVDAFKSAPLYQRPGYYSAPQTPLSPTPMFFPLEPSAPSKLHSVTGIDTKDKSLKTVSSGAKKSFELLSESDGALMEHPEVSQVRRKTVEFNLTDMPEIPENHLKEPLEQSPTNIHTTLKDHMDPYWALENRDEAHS
Chain of UniProt P32302 (whole entry, looked up): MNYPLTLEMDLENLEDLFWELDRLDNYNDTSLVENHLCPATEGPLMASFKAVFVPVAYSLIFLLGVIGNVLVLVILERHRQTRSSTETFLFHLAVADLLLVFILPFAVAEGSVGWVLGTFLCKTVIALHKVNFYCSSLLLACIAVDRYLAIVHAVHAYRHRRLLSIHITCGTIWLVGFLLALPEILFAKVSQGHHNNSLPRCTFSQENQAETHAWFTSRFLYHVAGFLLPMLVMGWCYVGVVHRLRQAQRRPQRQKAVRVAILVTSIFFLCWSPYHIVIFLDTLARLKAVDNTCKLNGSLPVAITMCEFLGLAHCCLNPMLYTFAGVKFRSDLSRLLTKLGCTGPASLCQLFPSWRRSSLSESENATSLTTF
Chain of UniProt P02763 (whole entry, looked up): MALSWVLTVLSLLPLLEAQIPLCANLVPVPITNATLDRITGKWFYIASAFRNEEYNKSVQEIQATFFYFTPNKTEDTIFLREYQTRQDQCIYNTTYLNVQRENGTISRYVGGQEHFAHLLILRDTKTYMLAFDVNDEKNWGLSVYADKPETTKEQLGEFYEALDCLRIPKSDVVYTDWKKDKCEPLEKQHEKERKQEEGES

Structure (SMILES)	target	test	system	conditions	how to read	quantity	result
CC[C@H](C)[C@H](NC(=O)[C@H](CCCNC(=N)N)NC(=O)[C@H](Cc1c[nH]cn1)NC(=O)[C@H](CCCNC(=N)N)NC(=O)[C@H](CC(=O)O)NC(=O)[C@H](CC(=O)O)NC(=O)[C@@H](NC(=O)[C@H](CC(=O)O)NC(=O)[C@@H]1CCCN1C(=O)[C@@H](N)CC(C)C)[C@@H](C)O)C(=O)N[C@@H](CCC(=O)O)C(=O)N[C@@H](CCC(=O)O)C(=O)N[C@@H](CCCCN)C(=O)N[C@@H](CCCNC(=N)N)C(=O)N[C@@H](CCCCN)C(=O)N[C@@H](CCCNC(=N)N)C(=O)N[C@H](C(=O)N[C@@H](Cc1ccc(O)cc1)C(=O)N[C@@H](CCC(=O)O)C(=O)N[C@H](C(=O)N[C@@H](Cc1ccccc1)C(=O)N[C@@H](CCCCN)C(=O)N[C@@H](CO)C(=O)N[C@H](C(=O)N[C@@H](CCSC)C(=O)N[C@@H](CCCCN)C(=O)N[C@@H](CCCCN)C(=O)N[C@@H](CO)C(=O)N1CCC[C@H]1C(=O)N[C@@H](C)C(=O)N[C@@H](CC(N)=O)C(=O)NCC(=O)N1CCC[C@H]1C(=O)O)[C@@H](C)CC)[C@@H](C)O)[C@@H](C)O	NF-kappa-B inhibitor alpha	binding, ITC	–	pH 7.5, 293 K, 50 mM NaCl	–	ΔH	-2.5 ± 0.01 kcal/mol
CN1C(=O)/C(=C2\Nc3ccccc3\C2=N/O)c2ccc(Br)cc21	Aryl hydrocarbon receptor	reporter gene, agonist, luciferase reporter	ZF-4	4 µM	reference: vehicle control	fold change	23.8
COc1cc(C#CC(=O)c2ccccc2OC)ccc1O	rhlR (Pseudomonas aeruginosa, UniProt P54292)	receptor binding	–	concentration not given, 1.5 h, with: BHL at 1:1 ratio	reference: control	binding	52%
CC(=O)c1ccccc1N	Or8a1 (Mus musculus, UniProt Q60893)	odorant-evoked current, agonist	isolated olfactory neurons	–	reference: acetophenone saturated response	Emax	109 ± 1%
Cc1cc(NS(=O)(=O)c2ccc(N)cc2)no1	folP (Bacteria, UniProt P0AC13)	CETSA HiBiT	Escherichia coli, whole cells	–	–	melting temperature	55.7 °C
CC1CCCN(C(=O)c2cc3ncccn3n2)C1 (stereo not drawn)	Huntingtin (HTT, Homo sapiens, UniProt P42858)	binding, affinity selection mass spectrometry	–	–	reference: other proteins in batch	log fold enrichment	0.0166
CC[C@H](C)[C@H](NC(=O)[C@H](CCCNC(=N)N)NC(=O)[C@H](Cc1c[nH]cn1)NC(=O)[C@H](CCCNC(=N)N)NC(=O)[C@H](CC(=O)O)NC(=O)[C@@H](N)CC(=O)O)C(=O)N[C@@H](CCC(=O)O)C(=O)N[C@@H](CCC(=O)O)C(=O)N[C@@H](CCCCN)C(=O)N[C@@H](CCCNC(=N)N)C(=O)N[C@@H](CCCCN)C(=O)N[C@@H](CCCNC(=N)N)C(=O)N[C@H](C(=O)N[C@@H](Cc1ccc(O)cc1)C(=O)N[C@@H](CCC(=O)O)C(=O)N[C@H](C(=O)N[C@@H](Cc1ccccc1)C(=O)N[C@@H](CCCCN)C(=O)N[C@@H](CO)C(=O)N[C@H](C(=O)N[C@@H](CCSC)C(=O)N[C@@H](CCCCN)C(=O)N[C@@H](CCCCN)C(=O)N[C@@H](CO)C(=O)N1CCC[C@H]1C(=O)N[C@@H](Cc1ccccc1)C(=O)N[C@@H](CC(N)=O)C(=O)NCC(=O)N1CCC[C@H]1C(=O)O)[C@@H](C)CC)[C@@H](C)O)[C@@H](C)O	NF-kappa-B inhibitor alpha	binding, ITC	–	pH 7.5, 293 K, 50 mM NaCl	–	ΔH	-4.2 ± 0.2 kcal/mol
CCS(=O)(=O)N1CC(CC#N)(n2cc(-c3ncnc4[nH]ccc34)cn2)C1	ORM1 (Homo sapiens, UniProt P02763)	FRET	–	concentration not given	–	binding distance	2.71 nm
O=C(c1ccc(C(=O)N2CCC(N3CCCC3)CC2)c(Nc2ccccc2)c1)N1CCC(N2CCCC2)CC1	Lethal(3)malignant brain tumor-like protein 3, MBT domains (Homo sapiens, UniProt Q96JM7)	FRAP	human cells	1 µM	–	diffusion coefficient	0.284 µm2/s
CC[C@@H]1[C@H](F)C(=O)N[C@@H]1COc1nccc2cc(C(N)=O)c(OC)cc12	STK16 (Homo sapiens, UniProt O75716)	ATP-site probe binding, ActivX profiling	THP-1 cell lysate	0.01 mM, Lys2 site	–	inhibition	21.2%
Nc1ncnc2c1ncn2[C@@H]1O[C@H](COP(=O)(O)CP(=O)(O)OP(=O)(O)O)[C@@H](O)[C@H]1O	P2X purinoceptor 1 (P2RX1, Homo sapiens, UniProt P51575, D170A)	saturation binding	HEK293	79 nM	–	specific binding	507 CCPM and 221 CCPM and 222 CCPM
O=C(Nc1cccc2[nH]ccc12)c1ccc(F)cc1	Alpha-synuclein (SNCA, Homo sapiens, UniProt P37840)	ThT kinetics	–	concentration not given, with: SNCA 2 µM	–	fibril formation	inhibited
COc1cc(-c2cc(C(C)=O)n3ccccc23)cc(OC)c1Cn1ccnc1	SMARCA2 (Homo sapiens, UniProt P51531)	–	–	–	–	ΔTm	-3 °C
CN(CCCC(F)(F)F)c1nccc(-c2cnn3ncccc23)n1	ABL1 Q252H	KINOMEscan	–	1 µM	reference: control	remaining binding	80%
Nc1ccc2ccc3cccc4ccc1c2c34	Aryl hydrocarbon receptor	reporter gene, agonist, luciferase reporter	ZF-4	370.37 µM	reference: vehicle control	fold change	1.96
CN(C)c1nccc(-c2cnc3ncccn23)n1	ABL1 Q252H	KINOMEscan	–	1 µM	–	remaining binding	73%
O=C(O)c1ccc(Nc2ncc3c(n2)-c2ccc(Cl)cc2C(c2c(F)cccc2F)=NC3)cc1	Aurora-A(h)	kinase activity	–	1 µM	–	remaining activity	0%
O=C(COP(=O)(O)O)[C@@H](O)[C@H](O)[C@H](O)COP(=O)(O)O	PMM2 (Homo sapiens, UniProt O15305)	thermal proteome profiling	HepG2 cell lysate	concentration not given, 57 over 37 °C, mean	reference: compound over control	thermal stability ratio	4.79
Nc1ccc(C(=O)O)cc1	BEST1, with wild-type BEST1 (Homo sapiens, UniProt O76090, Q293K)	ion current, whole-cell patch clamp	HEK293 co-expressing mutant and wild-type	concentration not given, voltage -40 mV	–	current density	-6.08 pA/pF and -1.75 pA/pF and -4.78 pA/pF and -6.33 pA/pF and -4.93 pA/pF and -15.7 pA/pF
Nc1ncnc2c1ncn2[C@@H]1O[C@H](COP(=O)(O)OP(=O)(O)OP(=O)(O)O)[C@@H](O)[C@H]1O	T1, ssDNA, aptamer	ITC	–	–	–	Kd	0.719 µM
CN1CCN(c2cc(-c3ccncc3)c(-c3ccc4ccccc4c3)nn2)CC1	CXCR5 (Homo sapiens, UniProt P32302)	agonist, FLIPR	–	12.5 µM	–	activation	-1.7%

Structure (SMILES)	target	test	system	conditions	how to read	quantity	result
CCN1CCC[C@H]1CNC(=O)c1c(O)c(Cl)cc(Cl)c1OC	GPR143 (Homo sapiens, UniProt P51810)	β-arrestin recruitment, TANGO luminescence	–	concentration not given	reference: basal luminescence	log2 fold change	0.087
CCCCCCCCCCCCC/C=C/[C@@H](O)[C@H](CO)NC(=O)CCCCCCCCCCCCCCCCCCCCCCC	Protein SET (SET, Homo sapiens, UniProt Q01105, K222D)	lipid binding, GFP pull-down LC-MS/MS	A549 overexpressing GFP-tagged protein	–	reference: eluate plus flow-through	lipid fraction bound	2.8%
O=C1C[C@@H](c2ccccc2)Oc2cc(O)cc(O)c21	Aryl hydrocarbon receptor	reporter gene, agonist, luciferase reporter	ZF-4	1111.11 µM	reference: vehicle control	fold change	1.29
Cc1ccc(NC(=O)/C=C/c2cccs2)cc1	Nicotinic acetylcholine receptor alpha9/alpha10 (Rattus norvegicus, UniProt P43144+Q9JLB5)	positive allosteric modulator	rat α9α10 expressing cells	with: ACh 10 µM	–	potentiation EC50	inactive
COc1cc(Nc2ncc3c(n2)-c2ccc(Cl)cc2C(c2c(F)cccc2OC)=NC3)ccc1C(=O)O	FGFR1	kinase activity	–	1 µM	–	remaining activity	18%
CC1(C)S[C@@H]2[C@H](NC(=O)[C@H](N)c3ccccc3)C(=O)N2[C@H]1C(=O)O	T2, DNA aptamer A10G	competition, fluorescence displacement	–	apparent, with: ThT 10 µM	–	Kd	89.8 µM
CCCCC[C@H](O)/C=C/[C@H]1[C@H](O)CC(=O)[C@@H]1C/C=C\CCCC(=O)O	PTGER1 (Homo sapiens, UniProt P34995, L215A)	IP1 accumulation, agonist	AD293	1 h, EP1 L215A mutant	–	Emax	62.6 ± 12%
Oc1ccccc1-c1n[nH]cc1-c1ccnc2ccccc12	Serine/threonine-protein kinase STE7 homolog (HST7, Candida albicans, UniProt Q5A6T5)	kinase binding, MIB/MS competition	Candida albicans lysate	10 µM	reference: DMSO, negative = stronger binding	log2 fold change	-0.05
CCCCCCCCCCCCC/C=C/[C@@H](O)[C@H](CO)NC(=O)CCCCCCCCCCCCCCCCCCCCC	SET	lipid binding, GFP pull-down LC-MS/MS	A549 overexpressing GFP-tagged protein	unit not given	reference: vector-transfected cells	bound endogenous lipid	5.2
COC(=O)c1cccc(C(=O)c2c[nH]c3c2ccc2ccccc23)n1	AHR (Homo sapiens, UniProt P35869)	reporter gene, agonist, XRE luciferase	HepG2	–	reference: ITE	Emax	66 ± 4%
Nc1nc2c(ncn2[C@@H]2O[C@H](COP(=O)(O)O)[C@@H](O)[C@H]2O)c(=O)[nH]1	GUK1 (Homo sapiens, UniProt Q16774, Y53A)	enzyme activity, NADH-coupled	–	7.812 µM	–	reaction rate	-0.849 s⁻¹ and -2.95 s⁻¹ and -0.325 s⁻¹
O=C1/C(=N/Nc2ccc(S(=O)(=O)O)cc2)C(c2ccc([N+](=O)[O-])cc2)=NN1c1ccccc1	UBASH3B (Homo sapiens, UniProt Q8TF42)	enzyme activity	–	with: OMFP	–	maximum inhibition	~70%
O=c1nc(SCc2cc(F)cc(C(F)(F)F)c2)nc(SCc2csc3ccc(Cl)cc23)[nH]1	TOP2A	DNA cleavage	–	15.6 µM, replicate 1	–	linear DNA	3.91%
Cn1c2c(Cl)c(Cl)ccc2c2cc[nH]c(=O)c21	Serine/threonine-protein kinase VRK3 (VRK3, Homo sapiens, UniProt Q8IV63)	thermal stability, thermal shift	–	10 µM	higher = stronger binding	delta Tm	-0.1 °C
C=CC(=O)N1CCC[C@@H](n2nc(-c3ccc(Oc4ccccc4)cc3)c3c(N)ncnc32)C1	PDK4 (Homo sapiens, UniProt Q16654)	–	–	1 µM	–	remaining activity	65%
[H]/N=C(/N)NCC(=O)O	SLC6A6 (Homo sapiens, UniProt P31641, L306A)	binding, microscale thermophoresis	–	977 nM, room temperature, with: 50 nM labelled protein	higher = more binding	normalised MST signal	-0.0548
CCCCCCCCCCCCC/C=C/[C@@H](O)[C@H](CO)NC(=O)CCCCCCCCCCCCCCCCCCCCCCCCC	SET	lipid binding, GFP pull-down LC-MS/MS	A549 overexpressing GFP-tagged protein	ER-targeted construct, unit not given	reference: vector-transfected cells	bound endogenous lipid	0.4
C[C@@H]1CCN(c2nccc(-c3cnn4ncccc34)n2)C1	ABL1 (Homo sapiens, UniProt P00519, F317I)	KINOMEscan	–	1 µM	–	remaining binding	60%
CCc1cnn2c(NCc3ccc[n+]([O-])c3)cc(N3CCCC[C@H]3CCO)nc12	BRD4 (Homo sapiens, UniProt O60885)	19F NMR, measured: tyrosine 65	–	24 µM	reference: free protein	chemical shift change	-0.002 ppm
Cc1nc(CSc2nc(SCc3ccc(C(C)C)cc3)nc(=O)[nH]2)cs1	TOP2A	DNA cleavage	–	15.6 µM	–	mean linear DNA	0%
Cc1cc2ccccc2c2ccc3ccccc3c12	Aryl hydrocarbon receptor	reporter gene, agonist, luciferase reporter	ZF-4	10000 µM	reference: vehicle control	fold change	4.94

For quick reference, copied from above:
Structure (SMILES)	target	test	system	conditions	how to read	quantity	result
CC(=O)c1ccccc1N	Or8a1 (Mus musculus, UniProt Q60893)	odorant-evoked current, agonist	isolated olfactory neurons	–	reference: acetophenone saturated response	Emax	109 ± 1%
Cc1cc(NS(=O)(=O)c2ccc(N)cc2)no1	folP (Bacteria, UniProt P0AC13)	CETSA HiBiT	Escherichia coli, whole cells	–	–	melting temperature	55.7 °C
CC1CCCN(C(=O)c2cc3ncccn3n2)C1 (stereo not drawn)	Huntingtin (HTT, Homo sapiens, UniProt P42858)	binding, affinity selection mass spectrometry	–	–	reference: other proteins in batch	log fold enrichment	0.0166
CC[C@H](C)[C@H](NC(=O)[C@H](CCCNC(=N)N)NC(=O)[C@H](Cc1c[nH]cn1)NC(=O)[C@H](CCCNC(=N)N)NC(=O)[C@H](CC(=O)O)NC(=O)[C@@H](N)CC(=O)O)C(=O)N[C@@H](CCC(=O)O)C(=O)N[C@@H](CCC(=O)O)C(=O)N[C@@H](CCCCN)C(=O)N[C@@H](CCCNC(=N)N)C(=O)N[C@@H](CCCCN)C(=O)N[C@@H](CCCNC(=N)N)C(=O)N[C@H](C(=O)N[C@@H](Cc1ccc(O)cc1)C(=O)N[C@@H](CCC(=O)O)C(=O)N[C@H](C(=O)N[C@@H](Cc1ccccc1)C(=O)N[C@@H](CCCCN)C(=O)N[C@@H](CO)C(=O)N[C@H](C(=O)N[C@@H](CCSC)C(=O)N[C@@H](CCCCN)C(=O)N[C@@H](CCCCN)C(=O)N[C@@H](CO)C(=O)N1CCC[C@H]1C(=O)N[C@@H](Cc1ccccc1)C(=O)N[C@@H](CC(N)=O)C(=O)NCC(=O)N1CCC[C@H]1C(=O)O)[C@@H](C)CC)[C@@H](C)O)[C@@H](C)O	NF-kappa-B inhibitor alpha	binding, ITC	–	pH 7.5, 293 K, 50 mM NaCl	–	ΔH	-4.2 ± 0.2 kcal/mol
CCS(=O)(=O)N1CC(CC#N)(n2cc(-c3ncnc4[nH]ccc34)cn2)C1	ORM1 (Homo sapiens, UniProt P02763)	FRET	–	concentration not given	–	binding distance	2.71 nm
O=C(c1ccc(C(=O)N2CCC(N3CCCC3)CC2)c(Nc2ccccc2)c1)N1CCC(N2CCCC2)CC1	Lethal(3)malignant brain tumor-like protein 3, MBT domains (Homo sapiens, UniProt Q96JM7)	FRAP	human cells	1 µM	–	diffusion coefficient	0.284 µm2/s
